Experimental data of several laboratories.
Parts stem from different laboratories: compare values within a part only.

Sample 1
Target: Histone acetyltransferase KAT6A, winged helix 2, GST fusion (KAT6A, Homo sapiens, UniProt Q92794, residues 85-181)
Method: protein binding microarray
Form: double-stranded DNA, one strand shown
Matrix: in vitro
Tested at: not given
Notes: 8-mer, flanks averaged, mean of 2 arrays, mostly near background
Reference: not given
Direction: higher = stronger binding
Target sequence (chain): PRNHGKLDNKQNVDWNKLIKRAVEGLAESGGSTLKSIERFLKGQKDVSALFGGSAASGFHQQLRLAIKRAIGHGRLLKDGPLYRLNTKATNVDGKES
With `ATAGGGAC` the E-score was -0.0621.
For `CAGTTGCG`, the E-score was 0.103.
With `CCGCTGCA` the E-score was 0.0926.
With `ACAGCCTA` the E-score was 0.0481.
With `AATGGGTC` the E-score was -0.0642.
The E-score of `AGCAGTTG` is reported as -0.0177.
For `CGAACGCA`, the E-score was 0.228.

Sample 2
Target: Sal-like protein 4, full length isoform A (SALL4, Homo sapiens, UniProt Q9UJQ4, residues 1-1053)
Sequence of UniProt Q9UJQ4 (whole entry, looked up): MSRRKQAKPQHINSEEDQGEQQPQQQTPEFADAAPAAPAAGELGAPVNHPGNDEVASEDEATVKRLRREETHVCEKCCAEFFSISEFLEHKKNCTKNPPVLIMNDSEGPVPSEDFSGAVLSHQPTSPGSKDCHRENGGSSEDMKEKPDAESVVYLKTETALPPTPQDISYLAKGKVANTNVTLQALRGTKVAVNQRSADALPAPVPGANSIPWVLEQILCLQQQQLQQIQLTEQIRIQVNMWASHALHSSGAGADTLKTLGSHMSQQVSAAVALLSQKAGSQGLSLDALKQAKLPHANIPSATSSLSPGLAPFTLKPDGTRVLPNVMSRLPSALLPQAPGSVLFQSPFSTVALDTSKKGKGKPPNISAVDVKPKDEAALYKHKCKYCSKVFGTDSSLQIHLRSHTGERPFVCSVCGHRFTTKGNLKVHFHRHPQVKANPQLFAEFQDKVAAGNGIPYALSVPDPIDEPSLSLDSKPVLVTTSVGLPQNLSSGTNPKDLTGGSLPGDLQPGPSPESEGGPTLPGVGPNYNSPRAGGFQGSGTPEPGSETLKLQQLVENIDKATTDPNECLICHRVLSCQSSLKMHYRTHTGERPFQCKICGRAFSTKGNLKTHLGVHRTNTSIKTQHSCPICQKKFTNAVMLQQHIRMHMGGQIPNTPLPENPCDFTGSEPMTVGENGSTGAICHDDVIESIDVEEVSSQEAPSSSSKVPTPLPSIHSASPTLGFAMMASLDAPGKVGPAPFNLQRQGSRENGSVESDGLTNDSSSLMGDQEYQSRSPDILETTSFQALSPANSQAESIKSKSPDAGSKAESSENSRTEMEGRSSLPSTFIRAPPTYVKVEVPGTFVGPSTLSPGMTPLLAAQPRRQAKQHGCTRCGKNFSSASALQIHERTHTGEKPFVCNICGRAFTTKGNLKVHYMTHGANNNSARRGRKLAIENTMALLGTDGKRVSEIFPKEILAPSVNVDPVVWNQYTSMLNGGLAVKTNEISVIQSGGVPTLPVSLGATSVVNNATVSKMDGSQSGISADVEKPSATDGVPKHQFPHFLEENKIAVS
Method: universal PBM
Form: double-stranded DNA, one strand shown
Matrix: in vitro
Tested at: 600 nM
Notes: 8-mer, flanks averaged, mean of replicates
Direction: higher = stronger binding
For `ATGGCACA`, the E-score was -0.0121.
The E-score of `AGTCGATA` is reported as 0.235.
`CTCTGATA` has an E-score of 0.175.
With `CTTCAAAG` the E-score was 0.133.
`AGTACAGG` has an E-score of -0.0119.

Sample 3
Target: Max dimerization protein 1, bHLH-zipper, MAX partner unstated (MXD1, Homo sapiens, UniProt Q05195, residues 56-136)
Method: protein-binding microarray
Form: double-stranded DNA, one strand shown
Matrix: in vitro
Tested at: not given
Notes: k-mer, scored over probes, only values ≥0.25
Direction: higher = stronger binding
Target sequence (chain): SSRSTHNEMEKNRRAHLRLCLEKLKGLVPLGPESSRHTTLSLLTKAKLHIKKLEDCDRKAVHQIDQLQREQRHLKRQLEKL
`GCCCCGCC` has an E-score of 0.324.
With `CACGCACA` the E-score was 0.307.
`AGAGCGTG` has an E-score of 0.334.
For `CGCATGTA`, the E-score was 0.373.
The E-score of `GACCCCGC` is reported as 0.258.

Mixed results
With `PhoQ, residues 284 288 289 292 302 303 ALSMDL` the fold induction was 14.4 (PhoP, residues 12 14 15 18 19 YHFSH (Escherichia coli, UniProt P23836); Sort-seq, item: YFP reporter; E. coli; PhoQ-PhoP variant library, added: 10 µM Mg2+; reference: high Mg2+ state, higher = stronger signaling).

A few entries again (sample 1):
For `CGAACGCA`, the E-score was 0.228.
With `CCGCTGCA` the E-score was 0.0926.
